Results of several laboratories.
Each line is one published result; not all experiments were run side by side.

CNC(=O)CNc1cnc2ccc(-c3ccc(OC)c(OC)c3)cc2n1
antiparasitic activity (Cryptosporidium hominis; cytopathic effect; HCT-8; concentration not given): inactive

N#Cc1c2nc3ccccc3nc2n2ccc(NC(=O)c3ccccc3Cl)cc12
MIC50 (Mycolicibacterium smegmatis; microbial growth; 24 h): > 100 µM

CC[C@H](C)[C@H](NC(=O)[C@@H]1CC(=O)N[C@@H](CO)C(=O)N[C@@H](CC(C)C)C(=O)NCC(=O)N[C@@H](CO)C(=O)N[C@@H](CO)C(=O)N2CCC[C@H]2C(=O)N[C@@H](Cc2ccc(O)cc2)C(=O)N[C@@H](CC(N)=O)C(=O)N1)C(=O)N[C@@H](CC(C)C)C(=O)NCC(=O)N[C@@H](Cc1ccc(O)cc1)C(=O)N1CCC[C@H]1C(=O)N[C@@H](C)C(=O)N[C@@H](CC(C)C)C(=O)N[C@H](C(=O)N[C@H](C(=O)N[C@H](C(=O)N[C@@H](Cc1ccc(O)cc1)C(=O)N1CCC[C@H]1C(=O)O)[C@@H](C)CC)C(C)C)[C@@H](C)CC
antifungal activity (fungi; concentration not given): inactive

F[P-](F)(F)(F)(F)F.F[P-](F)(F)(F)(F)F.[Cu+2].c1ccc(CN2CCCNCCN(Cc3ccccc3)CCCNCC2)cc1
IC90 (Leishmania donovani; parasite growth, resazurin; 72 h, promastigote): > 20 µM

COc1ccc(-c2ccc3oc(-c4ccc(OC)cc4)c(C#CC4(O)CCCCC4)c3c2)cc1
remaining activity (hepatitis C virus; viral entry, HCV pseudoparticle entry; genotype 1b; 10 µM; reference: DMSO): 76.5%

CC(=O)[O-].F[P-](F)(F)(F)(F)F.[Ni+2].c1ccc(CN2CCN3CCN(CC2)CCN(Cc2ccccc2)CC3)cc1
IC50 (Leishmania donovani; parasite growth, resazurin; 72 h, amastigote): > 20 µM

CC[C@H](C)[C@H](NC(=O)[C@H](CCCCN)NC(=O)[C@H](CCCCN)NC(=O)[C@H](CC(C)C)NC(=O)[C@H](CCCCN)NC(=O)[C@H](CCC(=O)O)NC(=O)[C@H](CCCCN)NC(=O)[C@@H](NC(=O)[C@H](CCCCN)NC(=O)[C@H](CC(N)=O)NC(=O)[C@H](CCCNC(=N)N)NC(=O)[C@H](Cc1ccccc1)NC(=O)[C@H](CCCCN)NC(=O)[C@H](CCCNC(=N)N)NC(=O)[C@H](CC(C)C)NC(=O)[C@H](CCCNC(=N)N)NC(=O)[C@H](CCCCN)NC(=O)[C@H](CCCNC(=N)N)NC(=O)[C@H](CC(C)C)NC(=O)CN)[C@@H](C)CC)C(=O)NCC(=O)N[C@@H](CCC(N)=O)C(=O)N[C@@H](CCCCN)C(=O)N[C@H](C(=O)N[C@@H](CCC(N)=O)C(=O)NCC(=O)N[C@@H](Cc1ccccc1)C(=O)N[C@H](C(=O)N1CCC[C@H]1C(=O)N[C@@H](CCCCN)C(=O)N[C@@H](CC(C)C)C(=O)N[C@@H](C)C(=O)N1CCC[C@H]1C(=O)N[C@@H](CCCNC(=N)N)C(=O)N[C@H](C(=O)N[C@@H](CC(=O)O)C(=O)N[C@@H](Cc1ccc(O)cc1)C(=O)O)[C@@H](C)O)C(C)C)[C@@H](C)CC
lethal concentration (Staphylococcus epidermidis; inhibition zone; penicillin-resistant P1389): 1 µM

c1ccc(CN2CCNCCN(Cc3ccccc3)CCNCC2)cc1
IC90 (Leishmania donovani; parasite growth; THP-1 macrophages; intracellular amastigotes): 2.8 µM

CCn1c(-c2ccc(-c3ccc(F)cc3)cc2)c(-c2ccc(-c3ccc(F)cc3)cc2)n(CC)c1=[Se+][Au-][P+](CC)(CC)CC.[Cl-]
mRNA level (Acinetobacter baumannii; refers to: TrxB; carbapenem-resistant; concentration not given, 2 h): no effect

CN1CC(=O)N=C1N.C[C@H](CCC(=O)O)[C@H]1CC[C@H]2[C@@H]3[C@@H](O)C[C@@H]4C[C@H](O)CC[C@]4(C)[C@H]3CC[C@]12C
antibacterial activity (Shigella flexneri; ATCC 9199; 1 mg per disc, 18 to 24 h, 37 °C): inactive

CC(=O)Oc1ccc(Cn2ccc(=O)[nH]c2=O)cc1C1OC(c2ccc(Cl)cc2)=NN1C(C)=O (stereo not shown)
EC50 (varicella-zoster virus; plaque formation, plaque reduction; HEL fibroblasts, TK+ strain OKA): > 20 µM

CC(=O)[O-].CN(C)C=O.F[P-](F)(F)(F)(F)F.[Co+2].c1ccc(CN2CCN3CCCN(CC2)CCN(Cc2ccccc2)CC3)cc1
IC50 (Leishmania donovani; parasite growth, resazurin; 72 h, amastigote): > 10 µM

CN[C@@H]1[C@H](O)[C@H](NC)[C@H]2O[C@]3(O)[C@H](O[C@@H]2[C@H]1O)O[C@H](C)C[C@]3(O)CNCc1ccc(F)cc1
inhibition zone diameter (Neisseria meningitidis; ATCC 13077; 40 µg per disc): 0 mm

Some of these lines once more:
CN[C@@H]1[C@H](O)[C@H](NC)[C@H]2O[C@]3(O)[C@H](O[C@@H]2[C@H]1O)O[C@H](C)C[C@]3(O)CNCc1ccc(F)cc1
inhibition zone diameter (Neisseria meningitidis; ATCC 13077; 40 µg per disc): 0 mm
